# Assay results from different studies.
# Numbered parts are unrelated; each lists some results of a single study. “And” joins repeats or separate records; there may be more than shown.

# Series 1 — observed: enzyme activity; action: inhibitor; concentration: 20 µM; setting: hit confirmation
# Target: Replicase polyprotein 1ab, main protease (rep, Severe acute respiratory syndrome coronavirus 2, UniProt P0DTD1)
SMILES,inhibition
Cc1cc(-c2ccc(/N=N/c3ccc4c(S(=O)(=O)O)cc(S(=O)(=O)O)c(N)c4c3O)c(C)c2)ccc1/N=N/c1ccc2c(S(=O)(=O)O)cc(S(=O)(=O)O)c(N)c2c1O,102%
CN(C)S(=O)(=O)c1cccc(-n2sc3ccccc3c2=O)c1,110%
Cc1ccc([N+](=O)[O-])cc1S(=O)(=O)N(C)C,-20.4%

# Series 2 — cell line: HEK-293T/ACE2; concentration: 10 µM; time: 16 h; reference: vehicle
Structure (SMILES),viability [%]
C=CC[C@@H]1/C=C(\C)C[C@H](C)C[C@H](OC)[C@H]2O[C@@](O)(C(=O)C(=O)N3CCCC[C@H]3C(=O)O[C@H](/C(C)=C/[C@@H]3CC[C@@H](O)[C@H](OC)C3)[C@H](C)[C@@H](O)CC1=O)[C@H](C)C[C@@H]2OC,108
[H]/N=C(/NCCCCC)N/N=C/c1c[nH]c2ccc(OC)cc12,94.5
NC(=O)N1c2ccccc2C=Cc2ccccc21,101
Cc1nnc(SCC2=C(C(=O)O)N3C(=O)[C@@H](NC(=O)Cn4cnnn4)[C@H]3SC2)s1,101

# Series 3 — method: protein-binding microarray; molecule type: double-stranded DNA, one strand shown; medium: in vitro; concentration: 0.8 µM; setting: whole 60-bp probe, no competitor; reading: higher = stronger binding; shared flanks, not repeated: … GTCTTGATTCGCTTGACGCTGCTG
# Target: Centromere-binding protein 1, full length, N-terminal tag (CBF1, Saccharomyces cerevisiae, UniProt P17106, residues 1-351)
# Sequence of UniProt P17106 (whole entry, looked up): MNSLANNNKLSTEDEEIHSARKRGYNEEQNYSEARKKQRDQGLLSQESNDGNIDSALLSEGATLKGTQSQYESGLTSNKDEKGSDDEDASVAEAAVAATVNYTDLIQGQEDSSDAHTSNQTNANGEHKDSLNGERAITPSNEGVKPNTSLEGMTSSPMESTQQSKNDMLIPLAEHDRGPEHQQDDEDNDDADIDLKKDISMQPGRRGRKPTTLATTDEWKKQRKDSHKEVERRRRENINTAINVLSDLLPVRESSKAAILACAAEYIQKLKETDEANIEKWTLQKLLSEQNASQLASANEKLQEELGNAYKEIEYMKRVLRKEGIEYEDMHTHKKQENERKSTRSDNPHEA
Strand,fluorescence intensity
CTAGGTTACTATTGTAGTCTGGTGAGTTAATACTTC,530 a.u.
CTATTAATTTAATGTCACCATATTATAAAAATATTC,720 a.u.
GAAATTGATTTCAATCACGCTTTAAAGTTTTTTTAG,808 a.u.
CTAGCACTTCGTAGATTCATCATGTTCTATACGTTC,528 a.u.
CTATATTGTATGTACCACGCAATTGAAGTTTTCTTC,526 a.u.
TGTACGAAGCTATATCACCATCGTATAGTAGTTAGG,503 a.u.
CCTAACTACTATACAGGTATCACATAGCTTCGTACA,526 a.u.
CTATTTGCGCACAAAGTGGTGACGTACAAGTTCTTC,540 a.u.

# Series 4 — action: inhibitor; concentration: 20 µM
# Target: Replicase polyprotein 1ab, nsp12 with nsp7/nsp8 (rep, Severe acute respiratory syndrome coronavirus 2, UniProt P0DTD1)
SMILES,inhibition
C[C@H](Nc1ncnc2[nH]cnc12)c1cc2ccc(F)cc2nc1-c1ccccn1,-9.53% and -3.06%
NC(=O)c1ccc[n+]([C@@H]2O[C@H](COP(=O)([O-])OP(=O)(O)OC[C@H]3O[C@@H](n4cnc5c(N)ncnc54)[C@H](O)[C@@H]3O)[C@@H](O)[C@H]2O)c1,0.53% and 11.2%
CCn1c(=O)c(-c2cc[nH]n2)cc2c(C)nc(N)nc21,-1.88% and -4.06%
COc1cc(N2CCC(N3CCN(C)CC3)CC2)ccc1Nc1ncc(Cl)c(Nc2ccccc2P(C)(C)=O)n1,4.39% and 1.83%
CC[C@H]1[C@@H](O)[C@@H]2[C@H](CC[C@]3(C)[C@@H]([C@H](C)CCC(=O)O)CC[C@@H]23)[C@@]2(C)CC[C@@H](O)C[C@@H]12,4.18%
CC(C)N[C@@H]1CCn2c(=O)[nH]c3cccc(c32)[C@H]1O,11.3% and 2.13%
CCS(=O)(=O)N(C)[C@H]1c2cc(C#N)ccc2OC(C)(C)[C@@H]1O,-4.27%
Cc1c2oc3c(C)ccc(C(=O)N[C@@H]4C(=O)N[C@H](C(C)C)C(=O)N5CCC[C@H]5C(=O)N(C)CC(=O)N(C)[C@@H](C(C)C)C(=O)O[C@@H]4C)c3nc-2c(C(=O)N[C@@H]2C(=O)N[C@H](C(C)C)C(=O)N3CCC[C@H]3C(=O)N(C)CC(=O)N(C)[C@@H](C(C)C)C(=O)O[C@@H]2C)c(N)c1=O,16.8%
CCOc1ccc(-n2c([C@@H](C)N(Cc3cccnc3)C(=O)Cc3ccc(OC(F)(F)F)cc3)nc3ncccc3c2=O)cc1,-6.85%
C=C[C@@]1(C)CC(=O)[C@]2(O)[C@@]3(C)[C@@H](O)CCC(C)(C)[C@@H]3[C@H](O)[C@H](OC(C)=O)[C@@]2(C)O1,-14% and -17.4%
O=C(O)/C=C\c1c[nH]cn1,-2.92% and -11.1%

# Repeated from above (series 1):
SMILES,inhibition
Cc1cc(-c2ccc(/N=N/c3ccc4c(S(=O)(=O)O)cc(S(=O)(=O)O)c(N)c4c3O)c(C)c2)ccc1/N=N/c1ccc2c(S(=O)(=O)O)cc(S(=O)(=O)O)c(N)c2c1O,102%
CN(C)S(=O)(=O)c1cccc(-n2sc3ccccc3c2=O)c1,110%
Cc1ccc([N+](=O)[O-])cc1S(=O)(=O)N(C)C,-20.4%
